Measured values gathered from unrelated publications.
A part holds a random share of what one study measured. Substitutions count along the parent as printed.

Set 1
Target: ABI1, truncated, D143A, DHFR fusion (Arabidopsis thaliana)
Technique: DHFR PCA, deep sequencing
Medium: yeast
Notes: methotrexate growth selection, single substitutions
Together with: (+)-ABA 0.0091 µM
Relative to: wild-type fitted maximum
Reading: higher = stronger binding
Parent: PYL1, truncated, DHFR fusion (Arabidopsis thaliana); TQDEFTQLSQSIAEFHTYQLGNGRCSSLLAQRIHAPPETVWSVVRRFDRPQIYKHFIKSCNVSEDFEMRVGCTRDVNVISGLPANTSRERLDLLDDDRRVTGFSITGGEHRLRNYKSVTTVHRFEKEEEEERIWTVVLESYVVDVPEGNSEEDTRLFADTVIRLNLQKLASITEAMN
Change | relative binding score [%]
E139Y | -0.922
S11K | -2.84
V118C | 8.25
T120R | -0.7
L156D | -0.366
E130Q | 23.2
Q2W | 52.6
L91M | 7.71
L20F | 7.62
E129L | 11.6
T135G | -8.03
H55R | 16.5
Y53L | -1.4
P36S | 22
P83N | 14.1
M68N | -0.332
A84P | 29.5
P36F | -0.409
T86E | 4.09
S63P | 44.8

Set 2
Target: Histone acetyltransferase KAT6A, winged helix 1, GST fusion (KAT6A, Homo sapiens, UniProt Q92794, residues 1-85)
Technique: protein binding microarray
Molecule type: double-stranded DNA, one strand shown
Medium: in vitro
Tested at: not given
Notes: 8-mer, flanks averaged, mean of 2 arrays, mostly near background
Relative to: not given
Reading: higher = stronger binding
Construct (chain): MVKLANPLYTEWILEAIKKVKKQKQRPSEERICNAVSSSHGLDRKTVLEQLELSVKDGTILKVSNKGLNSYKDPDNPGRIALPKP
Strand | E-score
GTGCTTAA | 0.0214
GTCGCCTA | 0.137
ATAGCGCC | 0.303
ATCGATGC | 0.0689
ATACATCA | -0.283
GAGGTATA | -0.0939
CATAGGGG | -0.166
ACTAAGCA | -0.0308
ATGCACTG | -0.328
CCGCAAAC | 0.0516
GCGTAACA | 0.118
CGCCAGGA | 0.0904
ATACACTA | -0.166
CGTATGTC | 0.158
CTGGTGTA | -0.147
AGTCTGCC | -0.0934
ACAGAGCG | 0.0607
GTGTAACA | -0.0609
CACTGGTA | -0.126
CTGTGGGA | -0.17
AACTTTAT | -0.16
TAGCATCA | -0.0351
GAGGAATC | -0.0326

Set 3
Target: DDIT3, bZIP domain (human)
Technique: DHFR protein complementation
Medium: yeast
Notes: single substitutions, most at no-binding floor
Relative to: wild-type JUN-FOS pair
Reading: higher = stronger binding
Parent: JUN, bZIP domain (human); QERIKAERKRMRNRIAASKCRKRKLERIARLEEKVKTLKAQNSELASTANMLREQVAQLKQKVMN; partner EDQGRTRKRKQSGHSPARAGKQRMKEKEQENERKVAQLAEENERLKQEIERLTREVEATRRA
Change | binding fitness [natural log]
Q41D | -0.308
L45V | -1.21
L38C | -1.24
K36C | 0.0507
N42Q | -0.0352
M51H | -0.00918
Q41K | -0.056
E32P | -1.15
E44M | 0.054
M51C | -0.0414
E33A | -0.0115
A49G | -1.04
E32F | -1.04
I28N | -0.0725

Set 4
Target: Sal-like protein 4, full length isoform B (SALL4, Homo sapiens, UniProt Q9UJQ4-2, residues 1-616)
Technique: universal PBM
Molecule type: double-stranded DNA, one strand shown
Medium: in vitro
Tested at: not given
Notes: 8-mer, flanks averaged, mean of replicates
Reading: higher = stronger binding
Strand | E-score
ATCAAGAG | 0.151
CTCGGCGC | -0.257
TGGCCAAA | -0.0293
AAGTGGGT | -0.162
TGCCATAA | 0.161
CAAAGACG | -0.0599
GTAACGCA | 0.0479
CAACCTGG | -0.107
CATACGGA | -0.0649
TTTGCAAA | 0.074
ACGATCAT | 0.133
CTCAAAGC | -0.00347
CAGATAGC | -0.171
ACACGCCC | -0.17
AACGGAAA | 0.0592
ATTTGCCG | -0.0761
ATCAGTCC | -0.282

Set 5
Target: RING finger protein unkempt homolog, zinc fingers 1-6, GST-SBP tag (UNK, Homo sapiens, UniProt Q9C0B0, residues 30-357)
Technique: RNA Bind-n-Seq
Molecule type: RNA
Medium: in vitro
Tested at: not given
Notes: RNA with constant flanks, human and mouse sites, ends assumed
Relative to: input RNA pool
Reading: higher = stronger binding
Constant ends, left off below: GGGAGUUCUACAGUCCGACGAUC … CAACAGAGGAUUGAGCAUCA
Target sequence (chain): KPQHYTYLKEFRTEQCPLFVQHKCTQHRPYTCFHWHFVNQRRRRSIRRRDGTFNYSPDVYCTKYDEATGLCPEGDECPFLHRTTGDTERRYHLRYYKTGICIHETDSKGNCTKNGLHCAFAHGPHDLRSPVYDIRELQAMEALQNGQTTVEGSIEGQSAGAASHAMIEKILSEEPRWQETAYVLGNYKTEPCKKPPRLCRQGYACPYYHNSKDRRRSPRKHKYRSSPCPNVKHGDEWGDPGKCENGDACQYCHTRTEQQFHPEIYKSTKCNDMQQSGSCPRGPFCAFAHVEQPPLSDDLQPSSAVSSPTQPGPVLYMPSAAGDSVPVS
Strand | bound/input enrichment [ratio]
GGCACAUGCCUGCCAGCGUUGUGUCAUGCCUGUCCACAGGGGAUUCGUGGGGCUCACUUCAUCAGAGUUUGAAGCCCAAAUGAAACGCUGAAGUGACUGAGAACCUGGCUUCAGUAUAUU | 0.0762
GGCAAAACUUUGUAGUCACCCUUAUCUGUGAAAUGAAUGACUUGUUUUAACAAAAACAACUUUGACACUGUUGAUUAAGAAUAUUUGUCAUCACUGGGAUGUGAAUCCCAACAAGUCAUU | 0.16
AGACGCAAGAUGGCUGUCCUCUCUAAGGAAUAUGGUUUUGUGCUUCUAACUGGUGCUGCCAGCUUUAUAAUGGUGGCCCACCUAGCCAUCAAUGUUUCCAAGGCCCGCAAGAAGUACAAA | 0.299
UACCUGCCUAGAAACUGAAAUUUUAAACUUAAUUCAGGUCUUAAUGCCUAAAUUUUCCAUGUGAUGUUUAUAGUCUGUAUUACUUCUCCAAAUAAUGAACUACCUGAUUCAUUGUCCCUU | 3.86
GACCGCCUGGUAGCCUUUCCUACUCGAGUAGCAGGUGGAAUUGGAAUCACCUGUUGGAUUUUAGUCUGUAACAAAGUUGUGGCUAUCGUUCUCCACCCUUUCAGCUGAGGGGAAGGCCAG | 0.374
UUUUUGCACCUGAAAAAGGCAGCCAUAGUUUUCCAGAAGCAACUCAGAGGUCAGAUUGCUCGGAGAGUUUACAGACAAUUGCUGGCAGAGAAAAGGGAGCAAGAAGAAAAGAAGAAACAG | 0.248
UGUCUGCCUCAUUCUAAAAUUUACACAGUAGACCAUUUGUCAUCCAUGCUGUCCCACAAAUAGUUUUUUGUUUACGAUUUAUGACAGGUUUAUGUUACUUCUAUUUGAAUUUCUAUAUUU | 8.48
GACUUAGAUAAUUCUUUGGAAGUGAAGGCUAAGCCUGCUUCUGGCCUAGAUGGUAAUUUCAAUAGCAUCCGAAUGGAUAUGUUCAGUGUGUAGGAGUGAAGACAGGAUCCCGUGCUUAAA | 2.1
UCCUCACUGGAAAACAUGCUUUUGUUUAACAGUCCUUCUGUUGGCCCUGAUGCUCCCAAGAUAGAGGACUUGAAGUGGCAUUCUGCAUUCUUCAGAAAACAAAUGGGUACUUCCUUGGUU | 0.174
GUGUCCUGGUCCCAGUUCAACAGGGAGAAUUUACCAGGACGGAAUUACACUUUCUGGCAAUGGUUUGACGGUGUGAUGGAAGUGUUAAAAAAACAUCUCAAGCCUCAUUGGAAUGAUGGG | 0.271
CUGUUGGAUGGAUUUCCAAGGACACUUCCACAGGCAGAAGCCCUGGAUAAAGUUUAUCAGAUAGACACAGUGAUAAAUCUCAACGUGCCCUUUGAGGUCAUUAAACAGCGCCUUACUGCU | 0.131

Set 6
Target: CCND3, cyclin fold, Cln2 fusion (human)
Technique: yeast growth competition, sequencing
Medium: yeast
Notes: weak parent motif
Relative to: not given
Reading: higher = stronger binding
Parent: PPP1R3F docking peptide (human); VAPRRVLFADEAL
Change | normalised enrichment score
V1A | 0.0928
E11A | 0.164
L13A | 0.0761
R5A | 0.121
P3A | 0.184
R5K | -0.148
R5A L7A | -0.0933
R5K F8L | 0.404

Single results of other studies
Molecule | target | assay | system | conditions | how to read | endpoint | value
PhoQ, residues 284 288 289 292 302 303 SCEHLI | PhoP, residues 12 14 15 18 19 QQAYL (Escherichia coli, UniProt P23836) | Sort-seq, item: YFP reporter | E. coli | PhoQ-PhoP variant library, together with: 10 µM Mg2+ | relative to: high Mg2+ state, higher = stronger signaling | fold induction | 12.5
